Measurements collected from several papers.
Protocols differ between the studies behind these lines. ± marks the error that the study gave.
Cell line: T47D

| SMILES | assay | setting | IC50 |
| --- | --- | --- | --- |
| O=C1N=C(N2N=C(c3cccs3)CC2c2ccc(F)cc2)S/C1=C\c1ccc(Cl)cc1 (centres unmarked) | cell growth or viability, MTT | – | 16.9 µM |
| Cc1cc(C#N)cc(C)c1Oc1cc(Nc2ccc(C#N)cn2)nc2cnccc12 | – | 48 h | > 127 µM |
| COc1ccc(/C=C2\SC(N3N=C(c4ccc(C)cc4)CC3c3ccc(F)cc3)=NC2=O)cc1 (centres unmarked) | cell growth or viability, MTT | – | 9.3 µM |
| Cc1cc(C=O)cc(C)c1Oc1cc(Nc2ccc(C#N)cc2)nc2ccncc12 | – | 48 h | 42.1 ± 3.9 µM |
| COc1ccc(C2=NN(C3=NC(=O)/C(=C/c4ccc(N(C)C)cc4)S3)C(c3ccc(F)cc3)C2)cc1 (centres unmarked) | cell growth or viability, MTT | – | > 100 µM |
| CCCn1c(-c2cccnc2)nc(-c2ccc(C)cc2)c1-c1ccc(C)cc1 | cell growth or viability, SRB | 48 h | > 100 µM |
| O=c1oc2cc(O)cc3c2c2c(cc(O)cc12)CC3 | cell growth or viability, MTT | 48 h | 69 µM |
| CCCCn1c(-c2cccnc2)nc(-c2ccc(C)cc2)c1-c1ccc(C)cc1 | cell growth or viability, SRB | 48 h | > 100 µM |
| Cc1cc(/C=C/C#N)cc(C)c1Oc1cc(Nc2ccc(C#N)cn2)nc2ccncc12 | – | 48 h | > 120 µM |
| Cc1ccc(C(C)C)cc1.Cc1ncc(CO)c(C=NNC2=Nc3ccccc3-c3[nH]c4ccc(Br)cc4c3C2)c1O.[Cl-].[Cl][Os+] | cell growth or viability, MTT | 96 h | 12 µM |
| CCCCCCCCC=CCCCCCCCCn1c(-c2cccnc2)nc(-c2ccc(C)cc2)c1-c1ccc(C)cc1 | cell growth or viability, SRB | 24 h | > 100 µM |
| Cc1c(C)c(C)c(C[n+]2cn(CC(C)(C)c3ccccc3)c3ccccc32)c(C)c1C | cell growth or viability, MTT | 48 h | 34 µM |
| CCCCn1cc(C(=O)O)c(=O)c2cc(F)c(Nc3ccc(OC)cc3OC)c(N)c21 | cell growth or viability, SRB | 72 h | > 200 µg/mL |
| Cc1ccc(C2=NN(C3=NC(=O)C(=Cc4ccc(O)cc4)S3)C(c3ccc(F)cc3)C2)cc1 (centres unmarked) | – | – | 1.15 ± 0.56 µM |
| CCCCCCCCCCCCCCCCn1c(-c2cccnc2)nc(-c2ccc(C)cc2)c1-c1ccc(C)cc1 | cell growth or viability, SRB | 24 h | > 100 µM |
| Cc1ccc2nc(NC(=O)Cn3cc(COc4ccc(/C=N/Nc5cc([N+](=O)[O-])cc([N+](=O)[O-])c5)cc4)nn3)sc2c1 | cell growth or viability, MTT | 48 h | 77 µM |
| COc1ccc(C2=NN(C3=NC(=O)/C(=C/c4ccccc4)S3)C(c3ccc(F)cc3)C2)cc1 (centres unmarked) | cell growth or viability, MTT | – | 77.1 µM |
| CCCCCCCCn1c(-c2cccnc2)nc(-c2ccccc2)c1-c1ccccc1 | cell growth or viability, SRB | 24 h | 65.8 µM |
| Cc1ccc(C2=NN(C3=NC(=O)/C(=C/c4ccc(Cl)cc4)S3)C(c3ccc(F)cc3)C2)cc1 (centres unmarked) | cell growth or viability, MTT | – | 7.06 µM |
| CCCCCC(C)n1c(-c2cccnc2)nc(-c2ccc(C)cc2)c1-c1ccc(C)cc1 (centres unmarked) | cell growth or viability, SRB | 48 h | > 100 µM |

Excerpt of the above:
| SMILES | assay | setting | IC50 |
| --- | --- | --- | --- |
| COc1ccc(C2=NN(C3=NC(=O)/C(=C/c4ccccc4)S3)C(c3ccc(F)cc3)C2)cc1 (centres unmarked) | cell growth or viability, MTT | – | 77.1 µM |
| Cc1cc(C#N)cc(C)c1Oc1cc(Nc2ccc(C#N)cn2)nc2cnccc12 | – | 48 h | > 127 µM |
